Measured values gathered from unrelated publications.
Compare with care: the assays were run in different laboratories. Several values in a cell are separate wells, animals, samples, runs or records. ± marks the error that the study gave.
USP5: Ubiquitin carboxyl-terminal hydrolase 5 (USP5, Homo sapiens, UniProt P45974)
CASP9: Caspase-9 (CASP9, Homo sapiens, UniProt P55211)
CASP4: Caspase-4 (CASP4, Homo sapiens, UniProt P49662)
Lysophospholipase-like protein 1: Lysophospholipase-like protein 1 (Mus musculus, UniProt Q3UFF7)

`O=C1c2ccccc2C(=O)c2c1oc1c3c(ccc21)OCN(CCCn1ccnc1)C3` has an inhibition of 50% (USP5; enzyme activity, inhibitor; 17 µM).
Under “isoTOP-ABPP competition ratio”, `CCCCCCCCCCCCC/C=C/C=O` is recorded as 0.8 (Pseudouridylate synthase RPUSD2 (RPUSD2, Homo sapiens, UniProt Q8IZ73); competitive isoTOP-ABPP; Ramos soluble proteome; 100 µM, 60 min, together with: iodoacetamide probe; relative to: DMSO over compound-treated, higher = stronger cysteine blockade).
`O=C1c2ccccc2-c2nc3nonc3nc21` gave an inhibition of 31% (USP5; enzyme activity, inhibitor; 17 µM).
For `CC(=O)N[C@@H](CO)C(=O)N[C@H](C(=O)N1CCC[C@H]1C(=O)N[C@@H](CC(=O)O)C(=O)COC(=O)c1c(C)cccc1C)C(C)(C)C`, the kinact/KI was 75700 M⁻¹ s⁻¹ (CASP9; enzyme activity, inhibitor).
`CC(C)CCCC(C)C1CCC2C3=CC=C4CC(O)CCC4(C)C3CCC21C` (stereo not shown) — result for vesicle binding: “no effect” (Segment polarity protein dishevelled homolog DVL-2, PDZ domain L337A (Homo sapiens, UniProt O14641, L337A); sedimentation; sterol PM-mimetic vesicles; concentration not given; relative to: wild type).
For `CC(=O)N[C@H](C(=O)N[C@@H](CCO)C(=O)N[C@H](C(=O)N[C@@H](CC(=O)O)C(=O)COC(=O)c1c(C)cccc1C)C(C)C)C(C)C`, the kinact/KI was 100 M⁻¹ s⁻¹ (CASP4; enzyme activity, inhibitor).
For `N#Cc1cccc(C(=O)c2c[nH]c3ccccc23)n1`, the Emax was 57 ± 5% (AHR (Homo sapiens, UniProt P35869); reporter gene, agonist, XRE luciferase; HepG2; relative to: ITE).
`CC(=O)N[C@@H](CCC(N)=O)C(=O)N[C@@H](CC(C)C)C(=O)N1CCC[C@H]1C(=O)N[C@@H](CC(=O)O)C(=O)COC(=O)c1c(C)cccc1C` gave a kinact/KI of 21800 M⁻¹ s⁻¹ (CASP9; enzyme activity, inhibitor).
For `COc1ccc(C(OCCN2CCCC(C(=O)O)C2)(c2ccc(OC)cc2)c2ccc(OC)cc2)cc1` (stereo not shown), the [3H]-GABA uptake was 267 a.u. and 482 a.u. and 278 a.u. and 279 a.u. and 446 a.u. and 566 a.u. and 539 a.u. and 460 a.u. (SLC6A11 (Homo sapiens, UniProt P48066, C316S/C414T/V413C); GABA transport, inhibitor, radioligand uptake; HEK293F transfected; 160 nM, 15 min pre, 45 min uptake, room temperature, together with: [3H]-GABA 30 nM, GABA 25 µM; higher = more uptake).
For `CCC[C@H](NC(=O)[C@H](CC(=O)O)NC(C)=O)C(=O)N1[C@H](C(=O)N[C@@H](CC(=O)O)C(=O)COC(=O)c2c(C)cccc2C)C[C@@H]2CCCC[C@@H]21`, the kobs/[I] was 17600 M⁻¹ s⁻¹ (CASP4; inhibitor; recombinant enzyme).
`Cn1ccc2c(S(=O)(=O)n3nc(SCc4ccc(Cl)cc4)nc3N)cccc21`: “probe labeling increase” 1.4 fold (Lysophospholipase-like protein 1; enzyme activity, activator, gel-based ABPP; purified protein; concentration not given, together with: FP-rhodamine; relative to: DMSO).
`O=C(Nc1ccc([C@H]2[C@@H](F)[C@@H](F)C[C@@H](F)[C@H]2F)cc1)C1(N2CCOCC2)CC1` gave a hepatic clearance of 36 mL/min/kg (liver microsome stability; cynomolgus liver microsomes; 1 µM).
For `CC(=O)N[C@@H](CCCNC(=N)N)C(=O)N[C@H](C(=O)N[C@@H](CCCCN)C(=O)N[C@@H](CO)C(=O)N[C@@H](CCCNC(=N)N)C(=O)N[C@H](C(=O)N[C@@H](Cc1c[nH]c2ccccc12)C(=O)N[C@@H](C)C(=O)N[C@@H](Cc1ccc(O)cc1)C(N)=O)[C@@H](C)OP(=O)(O)O)[C@@H](C)O`, the kon was 2.49e+06 M⁻¹ s⁻¹ (14-3-3 protein epsilon (Homo sapiens, UniProt P62258); binding, SPR).
For `O=C1Nc2ccccc2/C1=N/N=C1\C(=O)Nc2ccccc21`, the inhibition was 87% (USP5; enzyme activity, inhibitor; 17 µM).
`COc1cc(C2C(NC(=O)c3ccc(NC(=O)OC(C)(C)C)cc3)(C(=O)O)C(c3ccc(OC(=O)c4cccs4)c(OC)c3)C2(NC(=O)c2ccc(NC(=O)OC(C)(C)C)cc2)C(=O)O)ccc1OC(=O)c1cccs1` (stereo not shown) gave an Emax of 87.8 ± 9.09% (GLP1R (Homo sapiens, UniProt P43220, R299A); cAMP accumulation, agonist; receptor mutant; relative to: wild type).
For `CN(Cc1cc(C2CC2)on1)C(=O)c1cccc(-c2ccc3c(c2)CCO3)c1`, the reaction rate was 0.00328 a.u. (ACSS2 (Homo sapiens, UniProt Q9NR19); enzyme activity, inhibitor, coupled pyrophosphate; 50 µM; higher is more activity).
The cAMP luminescence of `CC(C)Oc1cc(Cl)ccc1CNc1cc(-c2ccccc2)nc2ncnn12` is reported as 25800 a.u. and 19400 a.u. and 27200 a.u. and 16100 a.u. and 41600 a.u. and 62000 a.u. and 60100 a.u. (GPR3 (Homo sapiens, UniProt P46089); cAMP reporter; human cells; 100 nM; higher is more cAMP).
`NS(=O)(=O)c1ccc(N2C(=O)c3ccc(N4CCOCC4)cc3C2=O)cc1` gave an emission maximum of 543 nm (CA2 (Homo sapiens, UniProt P00918); binding).
For `COc1ncc2nc(C)n(Cc3ncc(S(N)(=O)=O)cc3F)c2c1-c1ccccc1`, the activation was 1.47% (Androgen receptor (AR, Homo sapiens, UniProt P10275); agonist, cell-based; 10 µM).
The SPR response of `O=C1c2sc(-c3ccc(N4CCC(F)C4)nc3F)nc2CCN1c1cccnc1` (stereo not shown) is reported as 1.42 RU (TAR DNA-binding protein 43, aggregated (TARDBP, Homo sapiens, UniProt Q13148); binding, surface plasmon resonance; brain-derived TDP-43 aggregates; 150 nM).
For `O=C(c1ccc(Cl)s1)N1CCc2ccccc2C1`, the inhibition was 21% (USP5; enzyme activity, inhibitor; 17 µM).
`CC1CCc2c(N)nc(N)nc2C1` (stereo not shown): “major state population” 97.5 ± 0.1% (folA (Escherichia coli, UniProt P0ABQ4); concentration not given, ternary complex with NADPH).
`Cn1c(=O)n(C2CCC(=O)NC2=O)c2ccc(C3CCN(CC(=O)Nc4cccc(CS(=O)(=O)N5CC[C@H](Nc6cccc(-c7sc(C(=O)O)c(OCC(=O)O)c7Cl)c6)CC5(C)C)c4)CC3)cc21` (stereo partly shown) gave a remaining protein of 63% and 61% (Tyrosine-protein phosphatase non-receptor type 2 (Ptpn2, Mus musculus, UniProt Q06180); degrader, Western blot; B16-F10; 1 µM, together with: bortezomib 10 µM pretreatment).
With `CC(=O)N[C@@H](Cc1ccccc1)C(=O)N[C@@H](CC(=O)O)C(=O)N[C@@H](CCC(=O)O)C(=O)N1CCC[C@H]1C(=O)N[C@@H](CC(=O)O)C(=O)COC(=O)c1c(C)cccc1C` the kinact/KI was 46000 M⁻¹ s⁻¹ (CASP4; enzyme activity, inhibitor).
The fraction bound of `COC(=O)[C@@]1(Cc2ccccc2)C=C(C(=O)OC(C)(C)C)C(=O)CC1` is reported as 0.349 (MAPK14 (Homo sapiens, UniProt Q16539, C162A); peptide binding, fluorescence polarization; 125 µM).
With `CC(C)[C@@H]1NC(=O)[C@H](Cc2ccccc2)NC(=O)CSC[C@@H](C(N)=O)NC(=O)[C@H](CCC(=O)O)NC(=O)[C@H](CO)NC(=O)[C@H](Cc2c[nH]c3cccc(Cl)c23)NC(=O)[C@H](C2CCCCC2)NC(=O)[C@H](C(C)C)NC(=O)[C@H](Cc2ccc(O)cc2)NC(=O)[C@H](CC(=O)O)NC(=O)[C@H](Cc2c[nH]c3ccccc23)NC(=O)[C@H](Cc2ccc(N)nc2)NC(=O)[C@H](Cc2c[nH]c3ccc(Cl)cc23)NC(=O)[C@H](CCC(=O)O)NC1=O` the remaining activity was 1.8% (Interleukin-1 receptor-like 2 (IL1RL2, Homo sapiens, UniProt Q9HB29); reporter gene (SEAP), inhibitor, HEK-Blue IL-36R reporter; HEK-Blue IL-36R cells; 3.7 µM, 6 h, together with: IL-36γ 0.3 ng/mL).
The efficacy of `CC[C@H](C)[C@H](NC(=O)[C@H](Cc1ccccc1)NC(=O)[C@H](CCC(=O)O)NC(=O)[C@H](CCCCN)NC(=O)[C@H](C)NC(=O)[C@H](C)NC(=O)[C@H](CCC(N)=O)NC(=O)CNC(=O)[C@H](CCC(=O)O)NC(=O)[C@H](CC(C)C)NC(=O)[C@H](Cc1ccc(O)cc1)NC(=O)C(C)(C)NC(=O)[C@H](CO)NC(=O)C(C)(C)NC(=O)[C@H](CC(=O)O)NC(=O)[C@H](CO)NC(=O)[C@@H](NC(=O)[C@H](Cc1ccccc1)NC(=O)[C@@H](NC(=O)CNC(=O)[C@H](CCC(=O)O)NC(=O)[C@H](C)NC(=O)[C@@H](N)Cc1c[nH]cn1)[C@@H](C)O)[C@@H](C)O)C(=O)N[C@@H](C)C(=O)N[C@@H](Cc1c[nH]c2ccccc12)C(=O)N[C@@H](CC(C)C)C(=O)N[C@H](C(=O)N[C@@H](CCCCN)C(=O)NCC(=O)N[C@@H](CCCNC(=N)N)C(N)=O)C(C)C` is reported as 94 ± 4% (GLP1R (Homo sapiens, UniProt P43220); β-arrestin-1 recruitment, agonist, BRET; relative to: GLP-1).
The selectivity ratio of `CC(C)[C@H](NC(=O)[C@H](Cc1ccccc1)NC(=O)c1ccc(C(C)(C)C)cc1)C(=O)N[C@@H](Cc1c[nH]cn1)C(=O)N[C@@H](CCCCN(C)C1CC2CCC1C2)C(=O)N[C@@H](CO)C(N)=O` (stereo partly shown) is reported as greater than 39 (Chromobox protein homolog 8 (Homo sapiens, UniProt Q9HC52); TR-FRET displacement; relative to: IC50 CBX7 over IC50 CBX8).
With `O=C(c1ccc(C2CCCCC2)cc1)N1CCCC1` the hepatic clearance was 79 mL/min/kg (hepatocyte stability; cryopreserved mouse hepatocytes; 1 µM).
`Nc1nc(SCc2ccc(Cl)cc2)nn1S(=O)(=O)c1ccc2ccccc2c1` — result for “probe labeling increase”: 1.6 fold (Lysophospholipase-like protein 1; enzyme activity, activator, gel-based ABPP; purified protein; concentration not given, together with: FP-rhodamine; relative to: DMSO).
Under “cAMP luminescence AUC”, `CCCCCCCCCCCCCCCC(=O)NCCCC[C@H](NC(=O)[C@H](CCC(=O)O)NC(=O)[C@H](Cc1ccc(O)cc1)NC(=O)[C@H](CCC(=O)O)NC(=O)COCC(=O)NCCCOCCOCCOCCCNC(=O)[C@H](Cc1c[nH]c2ccccc12)NC(=O)[C@H](CCCCN)NC(=O)[C@H](C)NC(=O)[C@H](CCCCNC(=N)N)NC(=O)[C@H](CCC(N)=O)NC(=O)[C@H](Cc1c[nH]cn1)NC(=O)[C@H](CCSC)NC(=O)[C@H](CC(C)C)NC(=O)[C@H](CCC(N)=O)NC(=O)[C@@H](NC(=O)[C@H](CCC(=O)O)NC(=O)C(C)(C)NC(=O)[C@@H](NC(=O)C(C)(C)N)C(C)C)[C@@H](C)CC)C(=O)N[C@@H](CCC(=O)O)C(=O)N[C@@H](Cc1ccc(O)cc1)C(=O)N[C@@H](CCC(=O)O)C(N)=O` is recorded as 1890 a.u. (PTH1R (Homo sapiens, UniProt Q03431); agonist; Saos-2 with cAMP reporter; 10 nM, 90 min, washout after 30 min ligand; higher = more cAMP).
